Results pooled from the literature.
Protocols differ between the studies behind these lines. Values joined by “and” are separate records of one study, mostly repeats; a detail may differ.
Sequence of UniProt P0A988 (whole entry, unmodified, looked up): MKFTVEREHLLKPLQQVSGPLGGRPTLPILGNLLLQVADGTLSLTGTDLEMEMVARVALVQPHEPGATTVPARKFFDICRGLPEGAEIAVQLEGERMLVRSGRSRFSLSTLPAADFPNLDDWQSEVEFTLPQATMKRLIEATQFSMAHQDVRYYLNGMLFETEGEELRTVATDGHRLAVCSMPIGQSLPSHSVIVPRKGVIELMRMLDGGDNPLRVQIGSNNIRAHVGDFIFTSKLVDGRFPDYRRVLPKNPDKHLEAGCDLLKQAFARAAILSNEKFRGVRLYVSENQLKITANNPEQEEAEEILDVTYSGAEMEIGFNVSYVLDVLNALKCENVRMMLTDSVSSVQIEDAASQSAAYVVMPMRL
Sequence of UniProt Q9UH17 (whole entry, looked up): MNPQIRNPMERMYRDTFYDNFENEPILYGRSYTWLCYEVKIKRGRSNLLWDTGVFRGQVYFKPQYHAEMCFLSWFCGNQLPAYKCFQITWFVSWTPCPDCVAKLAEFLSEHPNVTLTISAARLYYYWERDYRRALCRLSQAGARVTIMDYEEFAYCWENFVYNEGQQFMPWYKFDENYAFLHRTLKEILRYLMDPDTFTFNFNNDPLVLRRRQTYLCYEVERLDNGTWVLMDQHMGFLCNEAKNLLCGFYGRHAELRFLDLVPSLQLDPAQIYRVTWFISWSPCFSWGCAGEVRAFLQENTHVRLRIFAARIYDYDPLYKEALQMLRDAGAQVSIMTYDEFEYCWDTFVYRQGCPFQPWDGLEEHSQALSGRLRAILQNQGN
Sequence of UniProt P41145 (whole entry, looked up): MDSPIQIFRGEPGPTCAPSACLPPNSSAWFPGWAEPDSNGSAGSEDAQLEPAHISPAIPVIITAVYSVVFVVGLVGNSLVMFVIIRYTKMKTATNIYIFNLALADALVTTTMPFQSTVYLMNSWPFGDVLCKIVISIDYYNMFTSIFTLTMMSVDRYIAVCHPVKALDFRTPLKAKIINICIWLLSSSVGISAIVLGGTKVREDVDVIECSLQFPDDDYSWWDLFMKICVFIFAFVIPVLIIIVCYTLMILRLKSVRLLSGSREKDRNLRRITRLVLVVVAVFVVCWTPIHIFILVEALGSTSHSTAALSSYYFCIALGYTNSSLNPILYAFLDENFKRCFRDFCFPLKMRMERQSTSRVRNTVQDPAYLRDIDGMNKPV
Sequence of UniProt P08510 (whole entry, unmodified, looked up): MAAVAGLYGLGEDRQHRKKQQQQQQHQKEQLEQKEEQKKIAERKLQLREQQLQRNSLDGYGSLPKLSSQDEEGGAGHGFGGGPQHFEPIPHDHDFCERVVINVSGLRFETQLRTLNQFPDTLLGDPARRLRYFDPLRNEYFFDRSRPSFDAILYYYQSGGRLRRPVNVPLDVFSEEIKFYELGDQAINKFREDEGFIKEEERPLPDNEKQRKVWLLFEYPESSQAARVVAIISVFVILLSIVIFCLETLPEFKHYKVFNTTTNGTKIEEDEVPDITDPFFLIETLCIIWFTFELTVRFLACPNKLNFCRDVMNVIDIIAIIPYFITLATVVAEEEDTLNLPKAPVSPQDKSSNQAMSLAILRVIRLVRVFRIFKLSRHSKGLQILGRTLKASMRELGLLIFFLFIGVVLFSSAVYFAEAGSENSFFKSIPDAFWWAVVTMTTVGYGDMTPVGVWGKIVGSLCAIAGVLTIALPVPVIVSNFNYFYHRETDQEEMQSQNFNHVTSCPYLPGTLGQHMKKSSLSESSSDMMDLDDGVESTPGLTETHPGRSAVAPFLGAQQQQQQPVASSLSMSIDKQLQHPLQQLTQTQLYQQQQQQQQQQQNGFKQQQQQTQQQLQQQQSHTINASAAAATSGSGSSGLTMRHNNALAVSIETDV
Sequence of UniProt P0AC13 (whole entry, looked up): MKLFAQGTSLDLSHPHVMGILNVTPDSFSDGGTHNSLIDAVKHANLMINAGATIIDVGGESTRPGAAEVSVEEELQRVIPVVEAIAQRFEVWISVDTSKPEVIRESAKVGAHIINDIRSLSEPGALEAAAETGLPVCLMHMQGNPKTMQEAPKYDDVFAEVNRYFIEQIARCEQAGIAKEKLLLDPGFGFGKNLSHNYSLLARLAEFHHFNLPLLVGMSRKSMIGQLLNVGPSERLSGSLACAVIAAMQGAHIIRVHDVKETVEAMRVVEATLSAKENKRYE
Sequence of UniProt Q99720 (whole entry, looked up): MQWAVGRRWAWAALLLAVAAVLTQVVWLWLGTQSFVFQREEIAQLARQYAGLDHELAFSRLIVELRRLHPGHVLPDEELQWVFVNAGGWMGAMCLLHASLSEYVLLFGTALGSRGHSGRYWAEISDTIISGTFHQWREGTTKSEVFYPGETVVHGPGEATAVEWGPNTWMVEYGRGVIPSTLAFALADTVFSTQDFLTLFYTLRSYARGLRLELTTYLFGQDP
Sequence of UniProt O43148 (whole entry, looked up): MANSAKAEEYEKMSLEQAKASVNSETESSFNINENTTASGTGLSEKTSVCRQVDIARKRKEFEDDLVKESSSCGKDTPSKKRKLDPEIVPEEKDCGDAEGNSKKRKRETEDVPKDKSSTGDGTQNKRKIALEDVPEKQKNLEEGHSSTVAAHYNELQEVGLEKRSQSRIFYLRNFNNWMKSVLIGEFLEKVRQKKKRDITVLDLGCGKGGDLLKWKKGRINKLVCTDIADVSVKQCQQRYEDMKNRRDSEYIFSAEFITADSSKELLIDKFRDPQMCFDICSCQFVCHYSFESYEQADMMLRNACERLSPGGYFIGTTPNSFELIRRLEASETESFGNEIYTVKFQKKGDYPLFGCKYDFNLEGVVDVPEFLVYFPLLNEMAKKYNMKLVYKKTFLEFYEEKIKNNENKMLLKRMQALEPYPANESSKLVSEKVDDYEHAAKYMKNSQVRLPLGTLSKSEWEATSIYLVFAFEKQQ
Sequence of UniProt Q96GW9 (whole entry, looked up): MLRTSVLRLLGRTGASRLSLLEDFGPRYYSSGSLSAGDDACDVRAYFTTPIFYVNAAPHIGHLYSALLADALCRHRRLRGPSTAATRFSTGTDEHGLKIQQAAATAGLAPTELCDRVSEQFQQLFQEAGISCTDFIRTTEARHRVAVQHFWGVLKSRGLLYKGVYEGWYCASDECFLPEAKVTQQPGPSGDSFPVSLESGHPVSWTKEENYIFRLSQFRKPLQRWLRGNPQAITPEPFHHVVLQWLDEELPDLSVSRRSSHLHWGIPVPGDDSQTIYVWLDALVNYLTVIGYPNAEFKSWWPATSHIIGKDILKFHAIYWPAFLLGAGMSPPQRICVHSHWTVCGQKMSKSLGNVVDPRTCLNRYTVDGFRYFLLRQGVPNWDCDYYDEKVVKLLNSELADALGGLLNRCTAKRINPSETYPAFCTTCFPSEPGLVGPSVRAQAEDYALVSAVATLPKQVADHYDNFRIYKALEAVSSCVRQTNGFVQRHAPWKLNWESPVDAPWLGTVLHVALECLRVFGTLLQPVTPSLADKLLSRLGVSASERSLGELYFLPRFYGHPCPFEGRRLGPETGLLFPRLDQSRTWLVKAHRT
Sequence of UniProt P53779 (whole entry, looked up): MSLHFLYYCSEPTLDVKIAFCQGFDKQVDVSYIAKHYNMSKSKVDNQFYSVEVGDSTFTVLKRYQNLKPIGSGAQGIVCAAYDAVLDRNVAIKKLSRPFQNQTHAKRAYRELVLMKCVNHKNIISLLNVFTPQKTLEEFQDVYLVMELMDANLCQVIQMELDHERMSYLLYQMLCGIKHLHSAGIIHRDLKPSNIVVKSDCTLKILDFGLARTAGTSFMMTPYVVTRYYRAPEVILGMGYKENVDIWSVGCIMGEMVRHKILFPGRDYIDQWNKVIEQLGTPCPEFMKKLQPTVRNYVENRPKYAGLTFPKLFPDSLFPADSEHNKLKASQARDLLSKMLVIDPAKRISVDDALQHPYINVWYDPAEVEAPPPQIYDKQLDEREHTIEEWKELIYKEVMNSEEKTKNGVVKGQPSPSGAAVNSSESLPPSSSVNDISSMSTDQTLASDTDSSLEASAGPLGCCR
Sequence of UniProt P06241 (whole entry, looked up): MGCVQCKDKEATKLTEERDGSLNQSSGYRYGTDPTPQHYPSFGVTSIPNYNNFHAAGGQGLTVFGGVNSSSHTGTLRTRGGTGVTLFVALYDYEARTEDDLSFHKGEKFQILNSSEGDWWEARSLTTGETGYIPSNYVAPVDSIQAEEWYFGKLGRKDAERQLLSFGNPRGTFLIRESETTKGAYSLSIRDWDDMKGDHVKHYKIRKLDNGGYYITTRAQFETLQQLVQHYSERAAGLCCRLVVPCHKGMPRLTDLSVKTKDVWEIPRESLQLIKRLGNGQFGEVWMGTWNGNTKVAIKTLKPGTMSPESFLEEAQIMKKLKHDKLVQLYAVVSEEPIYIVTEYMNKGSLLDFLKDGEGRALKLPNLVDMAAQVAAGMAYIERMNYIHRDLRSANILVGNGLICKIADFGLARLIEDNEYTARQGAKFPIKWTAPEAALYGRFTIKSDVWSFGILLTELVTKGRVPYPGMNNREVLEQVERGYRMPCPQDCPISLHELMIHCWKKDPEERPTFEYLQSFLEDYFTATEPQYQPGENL
Sequence of UniProt Q8R2Y0 (whole entry, looked up): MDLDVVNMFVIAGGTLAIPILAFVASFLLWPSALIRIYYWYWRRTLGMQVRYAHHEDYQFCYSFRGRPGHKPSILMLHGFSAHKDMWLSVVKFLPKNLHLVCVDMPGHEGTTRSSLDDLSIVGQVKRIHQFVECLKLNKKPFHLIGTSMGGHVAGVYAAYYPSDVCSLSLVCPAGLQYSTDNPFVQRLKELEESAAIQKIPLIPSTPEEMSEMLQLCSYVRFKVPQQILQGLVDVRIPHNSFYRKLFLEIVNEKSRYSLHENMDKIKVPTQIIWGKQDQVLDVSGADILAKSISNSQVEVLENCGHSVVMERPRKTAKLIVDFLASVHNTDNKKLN

With `O=C(Cc1ccc(Cl)c(Cl)c1)N1CCN(Cc2ccccc2)[C@@H]2CCC[C@H](N3CCCC3)[C@H]21` (relative stereo) the Emax was 87% (OPRK1 (Homo sapiens, UniProt P41145); agonist; 0.3333 h).
For `O=C(NC1CCN(c2ncnc3[nH]cnc23)CC1)c1cccc(NS(=O)(=O)c2ccc(C(F)(F)F)cc2)c1`, the inhibition was 5.52% (RNMT (Homo sapiens, UniProt O43148); enzyme activity, inhibitor; 200 µM).
`Cn1nc(CCN)c(=O)c2c(=O)[nH]c(N)nc21` — result for “melting temperature shift”: 10.6 °C (folP (Bacteria, UniProt P0AC13); CETSA HiBiT; Escherichia coli, cell lysate; concentration not given; baseline: DMSO).
For `C[C@@H](CNCc1cc(Cl)cc(Cl)c1)CNc1nc2ncccc2[nH]1`, the selectivity ratio was greater than 2 (MARS2 (Homo sapiens, UniProt Q96GW9); enzyme activity; baseline: human IC50 over T. brucei IC50).
`CS(C)(=O)=Nc1ccc(-c2ccc(-c3nc4cc(O[C@@H]5CO[C@H]6[C@@H]5OC[C@H]6O)[nH]c4cc3F)cc2)cc1` gave an inhibition of 3% (PRKCD (Homo sapiens, UniProt Q05655); enzyme activity, inhibitor; 10 µM).
`O=C1NC(=O)c2c1c1cc(F)c[n+]3c1c1c2c2cc(O)ccc2[n]1[Ru-4]312([N]=C=S)[S+]3CC[S+]1CC[S+]2CC3` (stereo not shown) has a remaining activity of 35% (FYN (Homo sapiens, UniProt P06241); enzyme activity; 100 nM, human enzyme, added: 10 µM ATP; baseline: untreated).
The ΔH of `CC#CC(=O)NC[C@H](NC(=O)[C@H](CC1CCCCC1)NC(=O)[C@H](CCC(N)=O)NC(C)=O)C(=O)N[C@@H](CC(C)C)C(=O)N[C@@H](Cc1ccccc1)C(=O)O` is reported as -11.8 kcal/mol (Beta sliding clamp (Escherichia coli, UniProt P0A988); binding, isothermal titration calorimetry; 25 °C).
`CC(C)[C@H]1NC(=O)C[C@H]2/C=C/CCSSC[C@@H](NC1=O)C(=O)N[C@H](Cc1cccc3ccccc13)C(=O)NCC(=O)O2` gave an inhibition of 0.8% (MAPK10 (Homo sapiens, UniProt P53779); enzyme activity, inhibitor; 10 µM).
`CSCC[C@@H](N)C(=O)N[C@H](C)C(=O)N[C@H](C)C(=O)N[C@@H](C(=O)N[C@H](C)C(=O)NCC(=O)N[C@H](CC(C)C)C(=O)N[C@H](Cc1ccc(O)cc1)C(=O)NCC(=O)N[C@H](CC(C)C)C(=O)NCC(=O)N[C@H](CCC(=O)O)C(=O)N[C@H](CC(=O)O)C(=O)N[C@H](CCCNC(=N)N)C(=O)N[C@H](CCC(N)=O)C(=O)N[C@H](Cc1c[nH]cn1)C(=O)N[C@H](CCCNC(=N)N)C(=O)N[C@H](CCCCN)C(=O)N[C@H](CCCCN)C(=O)N[C@H](CCC(N)=O)C(N)=O)C(C)C` gave a Hill coefficient of 0.92 (Sh, DEL6-46 (Drosophila melanogaster, UniProt P08510); ion current, blocker, inside-out patch clamp; +30 mV).
For `OC1Cc2ccccc2CC1N1CCC2(C=Cc3cc(Br)ccc32)CC1` (racemic), the selectivity ratio was 290 (SIGMAR1 (Homo sapiens, UniProt Q99720); rat liver (sigma2), human sigma1; baseline: Ki sigma2 over Ki sigma1).
`CN(C)[C@H]1C[C@@]23CC[C@@]4(O2)C(=CC[C@]2(C)[C@@H](c5ccc6ccncc6c5)CC[C@H]24)C=C3[C@@H](O)[C@@H]1O` has an inhibition of -7.5% (STK10 (Homo sapiens, UniProt O94804); ATP probe labelling, inhibitor, KiNativ profiling; 1 µM).
With `C=CC(=O)Nc1cc(-c2ccc(C(=O)N3CCCC(O)(CC)C3)cc2)ccc1F` (stereo not shown) the unmodified protein was 53% and 40% (DNA dC->dU-editing enzyme APOBEC-3B, C-terminal domain (Homo sapiens, UniProt Q9UH17); covalent adduct, intact protein MS; 3 h, 10-fold excess, 250 µM).
`CC(C)CC(O)(CC(C)C)c1cn(C(=O)N2CCCC2)nn1`: “ratio of ratios” 2.89 (Abhd6 (Mus musculus, UniProt Q8R2Y0); enzyme activity, inhibitor, measured: Abhd6; mouse, brain; i.p., 0.8 mg/kg, 4 h, protein level; baseline: vehicle).
